Experimental data of several laboratories.
Lines come from different studies, so protocols differ. Numbers after ± are the reported error.

CC(C)[C@H](N)C(=O)OCC1(CO)C/C1=C/n1cnc2c(=O)[nH]c(N)nc21.Cl (mixture of isomers)
clearance (measured: prodrug; Swiss-Webster mouse (male), plasma; intravenous, 24.6 mg/kg, two-compartment model): 217 mL/min

CC1=C(CC(=O)O)c2cc(F)ccc2/C1=C\c1ccc([S+](C)[O-])cc1 (stereo not shown)
EC20 (mitochondrial swelling; BALB/cByJ female mouse liver mitochondria; 30 min, together with: succinate + rotenone; reference: CaCl2 maximal swelling): > 200 µM

COc1cc(Nc2ncc3c(n2)-c2ccc(Cl)cc2C(c2c(F)cccc2OC)=NC3)ccc1C(=O)O
AUC(0-8h) (human, phase I; oral, 30 mg single dose): 2630 ± 607 ng·h/mL

[2H]C([2H])([2H])Oc1cc2c(cc1OC([2H])([2H])[2H])C1CC(=O)C(CC(C)C)CN1CC2 (stereo not shown)
dose-normalized Cmax (measured: deuterated β-HTBZ; healthy human volunteers, plasma; oral, 12 mg single dose, standard meal): 0.9 ng/mL

COc1ccc2nc([S@@+]([O-])Cc3ncc(C)c(OC)c3C)[nH]c2c1
adverse events (human healthy; 40 mg, nervous system disorders): 0%

CS(=O)(=O)n1cc2c(n1)CN([C@H]1CO[C@H](c3cc(F)ccc3F)[C@@H](N)C1)C2
AUC(0-last) (healthy male human, plasma; oral, 1.5 mg, fasted single dose): 1.3 µM·h

CC(C)(CC(=O)N1CCCC1)NCC(=O)N1C[C@@H](F)C[C@H]1C#N
AUC(0-tau) at steady state (Chinese type 2 diabetes patients, plasma; oral, 200 mg once daily, multiple doses): 3370 ng·h/mL

COc1cc(CNC(=O)CCCC/C=C/C(C)C)ccc1O
EC20 (mitochondrial swelling; BALB/cByJ female mouse liver mitochondria; 30 min, together with: succinate + rotenone; reference: CaCl2 maximal swelling): > 200 µM

Cn1c(=O)c2[nH]cnc2n(C)c1=O
mean concentration (human, fasted baseline, cerebrospinal fluid): 65.2 ± 63 nM

CC1=C2C[C@H]3[C@@H](CC[C@@H]4C[C@H](NS(C)(=O)=O)CC[C@@]43C)[C@@H]2CC[C@@]2(C1)O[C@@H]1C[C@H](C)CN[C@H]1[C@H]2C
Tmax (patients, plasma; oral, 200 mg daily, day 22, cycle 1): 6 h

C=CC1=C(C(=O)O)N2C(=O)[C@@H](NC(=O)/C(=N\OCC(=O)O)c3csc(N)n3)[C@H]2SC1
EC20 (cytochrome c release, ELISA; BALB/cByJ female mouse liver mitochondria; 30 min; reference: alamethicin maximal release): > 400 µM

CS(=O)(=O)c1ccc(-c2cnc(N)c(-c3ccc(C(F)(F)F)nc3)c2)cc1
AUC(0-t) (Sprague-Dawley rat, pregnant female, plasma; oral, 30 mg/kg/day, gestation day 6): 126 µg·h/mL

CCCOc1ccc([C@H]2CNC(=O)N2c2ccc3[nH]cnc3c2)cc1
AUC(0-inf) (human, plasma; oral, 400 mg, single dose, fasted): 3560 ng·h/mL

Cn1c(-c2ccc(C(N)=O)cc2F)nnc1C(C)(C)Oc1c(F)cc(Cl)cc1F
Ctrough (young non-Japanese healthy subjects, plasma; oral, 0.2 mg once daily, 3 mg loading day 1, median, last dosing day): 0.557 ng/mL

CS(=O)(=O)Nc1ccc(C(=O)O[C@@H](Cc2c(Cl)c[n+]([O-])cc2Cl)c2ccc(OC(F)F)c(OCC3CC3)c2)cc1OCC1CC1
tmax (human, plasma; inhaled, 20 µg single dose, single-dose dry powder inhaler): 4.8 min

CCc1cc2c(C(=O)c3cc(Br)c(O)c(Br)c3)cc(Br)c(O)c2o1
microsomal CLint (metabolic stability; Sprague-Dawley rat, liver microsomes; 1 µM, pH 7.4): 2.6 µL/min/mg
